{"data": "Published values pooled from the literature", "note": "Each numbered part is a random draw from the data of one study; scales do not carry over between parts. Substitutions count along the parent as printed."}
{"data": "Set 1", "target": "Histone acetyltransferase KAT6A, winged helix 2, GST fusion (KAT6A, Homo sapiens, UniProt Q92794, residues 85-181)", "method": "protein binding microarray", "molecule type": "double-stranded DNA, one strand shown", "sample": "in vitro", "tested at": "not given", "notes": "8-mer, flanks averaged, mean of 2 arrays, mostly near background", "baseline": "not given", "reading": "higher = stronger binding", "Target sequence (chain)": "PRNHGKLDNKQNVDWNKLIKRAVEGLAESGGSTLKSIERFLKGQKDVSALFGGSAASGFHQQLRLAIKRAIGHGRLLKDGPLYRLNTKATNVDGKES"}
{"Sequence": "GCATCGCA", "E-score": 0.0692}
{"Sequence": "ACAGGGAG", "E-score": -0.0344}
{"Sequence": "CCGTGAGG", "E-score": -0.0339}
{"Sequence": "AGAGTGAC", "E-score": -0.0739}
{"Sequence": "ATACTGAT", "E-score": 0.051}
{"Sequence": "AACCGAAA", "E-score": 0.189}
{"Sequence": "ATCGAGGG", "E-score": 0.0291}
{"Sequence": "ACACTAGC", "E-score": 0.0292}
{"Sequence": "ATGGAAAC", "E-score": -0.157}
{"Sequence": "CCGAAGGC", "E-score": 0.231}
{"Sequence": "CTGCCCTC", "E-score": 0.0533}
{"Sequence": "CGCTTAAG", "E-score": -0.0626}
{"Sequence": "AGGGCTTC", "E-score": 0.0406}
{"Sequence": "CTTCGAGC", "E-score": 0.0472}
{"Sequence": "CGACTGCA", "E-score": -0.0235}
{"Sequence": "ATGTTCCG", "E-score": -0.00083}
{"data": "Set 2", "target": "Prothrombin, mature alpha-thrombin (F2, Homo sapiens, UniProt P00734)", "method": "aptamer microarray, sandwich", "molecule type": "DNA with 2'F-ANA", "sample": "in vitro", "tested at": "200 nM", "notes": "whole 15-mer aptamer, many near background", "added": "Cy3 exosite-II aptamer, 400 nM", "reading": "higher = stronger binding", "sequence": "GGTTGGTGTGGTTGG"}
{"Modification": "2'F-ANA at 1 6 7 8 9 11", "mean fluorescence intensity": "233 a.u."}
{"Modification": "2'F-ANA at 1 2 5 6 8 10 13 15", "mean fluorescence intensity": "50.3 a.u."}
{"Modification": "2'F-ANA at 8 10 11 12 13", "mean fluorescence intensity": "213 a.u."}
{"Modification": "2'F-ANA at 1 4 5 10 12 13 14", "mean fluorescence intensity": "73.9 a.u."}
{"Modification": "2'F-ANA at 5 7 9 10 11 15", "mean fluorescence intensity": "51.9 a.u."}
{"Modification": "2'F-ANA at 6 7 8 10 11 12", "mean fluorescence intensity": "207 a.u."}
{"Modification": "2'F-ANA at 1 3 5 6 10 15", "mean fluorescence intensity": "46.2 a.u."}
{"Modification": "2'F-ANA at 5 7 8 10 13 14", "mean fluorescence intensity": "62 a.u."}
{"Modification": "2'F-ANA at 5 6 9 12 13 15", "mean fluorescence intensity": "93.8 a.u."}
{"Modification": "2'F-ANA at 1 4 5 7 8 11", "mean fluorescence intensity": "54 a.u."}
{"Modification": "2'F-ANA at 1 2 3 6 11 12 13 15", "mean fluorescence intensity": "299 a.u."}
{"Modification": "2'F-ANA at 3 6 7 10 15", "mean fluorescence intensity": "488 a.u."}
{"Modification": "2'F-ANA at 1 2 3 4 5 7 8 13 15", "mean fluorescence intensity": "98 a.u."}
{"Modification": "2'F-ANA at 3 4 5 7 8 9 11 14", "mean fluorescence intensity": "54.3 a.u."}
{"Modification": "2'F-ANA at 1 2 7 8 9 14", "mean fluorescence intensity": "59.5 a.u."}
{"Modification": "2'F-ANA at 6 9 11", "mean fluorescence intensity": "424 a.u."}
{"Modification": "2'F-ANA at 1 2 3 4 8 11 12 13 15", "mean fluorescence intensity": "239 a.u."}
{"Modification": "2'F-ANA at 3 8 9 13", "mean fluorescence intensity": "1020 a.u."}
{"Modification": "2'F-ANA at 1 4 5 6 7 8", "mean fluorescence intensity": "62.9 a.u."}
{"Modification": "2'F-ANA at 2 5 7 10 11 12 13", "mean fluorescence intensity": "47.4 a.u."}
{"Modification": "2'F-ANA at 1 3 5 6 8 9 12 15", "mean fluorescence intensity": "105 a.u."}
{"Modification": "2'F-ANA at 1 2 4 7 10 11 12 14 15", "mean fluorescence intensity": "49 a.u."}
{"data": "Set 3", "target": "RNA binding protein fox-1 homolog 2, RRM domain, GST-SBP tag (RBFOX2, Homo sapiens, UniProt O43251-10, residues 100-194)", "method": "RNA Bind-n-Seq", "molecule type": "RNA", "sample": "in vitro", "tested at": "365 nM", "notes": "natural RNA segment, single round, ends assumed", "baseline": "no-protein control", "reading": "higher = stronger binding", "shared flanks, not repeated": "GGGAGUUCUACAGUCCGACGAUC … UGGAAUUCUCGGGUGCCAA", "Construct (chain)": "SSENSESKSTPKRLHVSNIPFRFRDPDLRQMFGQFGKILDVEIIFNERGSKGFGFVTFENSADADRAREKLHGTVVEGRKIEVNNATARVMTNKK"}
{"Sequence": "UGUCUUUGAAUUAGAAUCCAGACUAGUGUGGGAAGCAGUCUCUCUGGACUUUGAUUUAGGGAUCAUGUUUUGGCCUGGAAAAUAAGCAUUGGCCUGCGUGUUUAGAAGCU", "RBNS enrichment (R)": 0.863}
{"Sequence": "GAACAGACAAGUGGAAGGGCUGUACCAGGGAUAAAGGAAAGAAGUGCCUGUCCAGCAGGGAGCUUGAAUUUAAGUUCCAUGUAUGAAGUCAUUGGCUCUAUCUGCAUUUU", "RBNS enrichment (R)": 0.45}
{"Sequence": "CCACUGGGGCUUGGUGCCCUGUAGGGGUGGGAGGAUGGCUUAAUGCAGACCUUUACCUGUGAGCCCCUAGGCCAAGGCUGUAGCAUUAAAUGACUAUUUAUUCUUCUGCC", "RBNS enrichment (R)": 0.303}
{"Sequence": "AUGCUCACUUGUUAGUAUUUCUGAGUAACAAGAUGGUGACUUCUCCUUGGGGAUCUGGGAGCUGAGCACUUGUCUAUACUUGUUCCUAAUUUUCCAAGUAUUUCUCUUGA", "RBNS enrichment (R)": 0.44}
{"Sequence": "CAAUUGGAAGAGCAUAUGAACACGGGCCAGCUAGCAGGAUUUUCACAUCAAGUUAGAAGUCUGAUUUUGAAUAAUAUCAUCAAUAAGAAGGAGUUUGGGAUUUUGGCAAA", "RBNS enrichment (R)": 0.673}
{"Sequence": "AAAAACCCACUAAAGUGAAGCAUUUCUUGAUUCCCUUUUCCAUGCUGGUGCCUAGCCCGGGUGAGUGAGGCUGGCUGUGUUGGCCUGGGUGACUUGUGGUUGUAGAGUUG", "RBNS enrichment (R)": 0.413}
{"Sequence": "AGCGUCUAUGAGUCUGUAUUCCUGCUCAGUCAUCAACUUGUGUUCCUAUUGAACAUUUGAUCAGAAUGAACUUGCCAAUCAAAACAAAAACAGGACAAUCAAUUUAAGAC", "RBNS enrichment (R)": 0.324}
{"Sequence": "GACCUUUUUCACAGCUGAUGCUAUCAUAAUUUUGAAGGAUUUUUAAGUAAAACAGCAGUGUACAUAUGUGUGUACAGGACACCAAGACUCGCAGGCAGGCCUGAGAGCCC", "RBNS enrichment (R)": 0.309}
{"data": "Set 4", "target": "CCNB2, cyclin fold, Cln2 fusion (human)", "method": "yeast growth competition, sequencing", "sample": "yeast", "notes": "weak parent motif", "baseline": "not given", "reading": "higher = stronger binding", "starting sequence": "SAMHD1 docking peptide (human); ASKSRVQLFKDDP; partner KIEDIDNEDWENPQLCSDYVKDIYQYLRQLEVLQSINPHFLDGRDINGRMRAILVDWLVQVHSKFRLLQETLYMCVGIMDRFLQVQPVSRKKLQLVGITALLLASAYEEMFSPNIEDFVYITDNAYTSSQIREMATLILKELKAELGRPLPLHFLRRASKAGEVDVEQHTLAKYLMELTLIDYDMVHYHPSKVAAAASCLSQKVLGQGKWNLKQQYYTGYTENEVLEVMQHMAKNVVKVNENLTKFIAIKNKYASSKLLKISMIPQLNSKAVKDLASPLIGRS"}
{"Change": "V6N", "normalised enrichment score": -0.012}
{"Change": "Q7C", "normalised enrichment score": 0.104}
{"Change": "R5A", "normalised enrichment score": -0.000611}
{"Change": "Q7I", "normalised enrichment score": 0.122}
{"Change": "L8V", "normalised enrichment score": 0.084}
{"Change": "S4W", "normalised enrichment score": 0.0359}
{"Change": "D11T", "normalised enrichment score": 0.438}
{"Change": "K10G", "normalised enrichment score": -0.038}
{"Change": "V6Q", "normalised enrichment score": -0.485}
{"Change": "F9G", "normalised enrichment score": -0.00413}
{"Change": "K3V", "normalised enrichment score": 0.205}
{"Change": "D11Y", "normalised enrichment score": 0.414}
{"Change": "K10H", "normalised enrichment score": 0.00655}
{"Change": "D12A", "normalised enrichment score": 0.0177}
{"Change": "V6K", "normalised enrichment score": 0.539}
{"Change": "S2Y", "normalised enrichment score": 0.46}
{"Change": "L8S", "normalised enrichment score": 0.17}
{"Change": "K3Q", "normalised enrichment score": -0.0743}
{"Change": "K10P", "normalised enrichment score": 0.0324}
{"Change": "F9R", "normalised enrichment score": 0.205}
